Published values of several laboratories.
Each line is one published result; not all experiments were run side by side. Several values in a cell are separate wells, animals, samples, runs or records. ± marks the error that the study gave.

With `CC(=O)N[C@H](C(=O)N[C@@H](CCCNC(=N)N)C(=O)N[C@@H](CCCCN)C(=O)N[C@@H](CCCNC(=N)N)C(=O)N[C@@]1(C)CCCC=CCCC[C@@](C)(C(=O)N[C@@H](CC(C)C)C(=O)N[C@@H](CCC(N)=O)C(=O)N[C@@H](CCC(=O)O)C(=O)N[C@@H](CCCNC(=N)N)C(=O)N[C@@H](CCC(=O)O)C(=O)N[C@@H](CC(C)C)C(=O)N[C@H](C(=O)N[C@@H](CCC(=O)O)C(N)=O)C(C)C)NC(=O)[C@H](CCCNC(=N)N)NC(=O)[C@H](CCCNC(=N)N)NC(=O)[C@H](CC(C)C)NC1=O)C(C)C` the IC50 was > 100 µM (A-431 (wild-type EGFR); cell viability; 18 h).
The IC50 of `C#CCCCC[C@H](C)C[C@@H](C)C(=O)N(C)[C@@H](C)C(=O)N1CCC[C@H]1C(=O)N(C)[C@H](C(=O)N(C)[C@H](C(=O)OC)C(C)C)C(C)C` is reported as 69.5 µM and 127 µM and 95.6 µM (HEK293; cell growth or viability, SRB).
For `O=C1C=CC(=O)c2c(O)ccc(O)c21`, the IC50 was 0.147 µM (MOLT-3; cell growth or viability, XTT).
`Cc1cc(Nc2nc(C[C@@]3(C(=O)O)CCN(Cc4cccc(Cl)c4F)[C@H](C)C3)cc(C)c2F)[nH]n1` has an IC50 of 0.0795 µM (A2780; cell growth or viability, ATP luminescence; 5 days).
`Cc1cc(Oc2nc(N3CC[C@@H](c4ccncc4)C3)ncc2F)[nH]n1` has an IC50 of 83.2 µM (SK-LMS-1; cell proliferation; uterus cancer).
`CC[C@H](C)[C@H](NC(=O)[C@H](CCCCN)NC(=O)[C@@H](NC(=O)[C@H](CCC(N)=O)NC(=O)[C@@H](N)CCCNC(=N)N)[C@@H](C)CC)C(=O)N[C@@H](Cc1c[nH]c2ccccc12)C(=O)N[C@@H](Cc1ccccc1)C(=O)N[C@@H](CCC(N)=O)C(=O)N[C@@H](CC(N)=O)C(=O)N[C@@H](CCCNC(=N)N)C(=O)N[C@@H](CCCNC(=N)N)C(=O)N[C@@H](CCSC)C(=O)N[C@@H](CCCCN)C(=O)N[C@@H](Cc1c[nH]c2ccccc12)C(=O)N[C@@H](CCCCN)C(=O)N[C@@H](CCCCN)C(=O)N[C@@H](CC(C)C)C(=O)N[C@@H](CCC(=O)O)C(=O)N[C@H](C(=O)N[C@@H](C)C(=O)N[C@H](C(=O)N[C@@H](CC(N)=O)C(=O)N[C@@H](CC(C)C)C(=O)N[C@@H](C)C(=O)N[C@@H](Cc1c[nH]c2ccccc12)C(=O)O)C(C)C)[C@@H](C)O` has an IC50 of 3.5 µM (MEC1; cell growth or viability, flow cytometry; 90 min).
With `CC(C)C12OC1C1OC13C1(C)CCC4=C(COC4=O)C1CC1OC13C2OC(=O)CCC(=O)OC1OC(CO)C(O)C(O)C1O` (centres unmarked) the IC50 was 0.56 µM (LNCaP; cell growth or viability, XTT; 47 h).
`CC(=O)N[C@H](C(=O)N[C@@H](CCCNC(=N)N)C(=O)N[C@@H](CCCCN)C(=O)N[C@@H](CCCNC(=N)N)C(=O)N[C@H](C(=O)N[C@@H](CC(C)C)C(=O)N[C@@H](CCCNC(=N)N)C(=O)N[C@]1(C)CCCC=CCCC[C@@](C)(C(=O)N[C@@H](CCC(=O)O)C(=O)N[C@@H](CCCNC(=N)N)C(=O)N[C@@H](CCC(=O)O)C(=O)N[C@@H](CC(C)C)C(=O)N[C@H](C(=O)N[C@@H](CCC(=O)O)C(N)=O)C(C)C)NC(=O)[C@H](CC(C)C)NC(=O)[C@H](CC(C)C)NC1=O)[C@@H](C)O)C(C)C` gave an IC50 of > 100 µM (A-431; cell viability; 18 h, serum-free).
For `O=C1NC2(CC2)COc2ncc(F)cc2[C@H]2COCCN2c2ccn3ncc1c3n2`, “organ-to-body weight ratio” read 0.033 ± 0.004% (Sprague-Dawley rat, female, ovaries; oral, 2.5 mg/kg/day, 4 weeks, end of treatment).
With `O=c1n(CCNCCOS(=O)(=O)c2ccccc2)c(=O)n(S(=O)(=O)c2ccccc2)c(=O)n1S(=O)(=O)c1ccccc1` the IC50 was 21.5 µg/mL (A549; cell growth or viability, MTT; 24 h).
`COc1ccccc1-c1n[nH]c2nc(NC3CCN(C(=O)Cc4ccc(F)cc4F)CC3)ncc12` gave a relative abundance of 0.99 (bead binding, competition bead pull-down, refers to: LINJ.35.3280; Leishmania donovani axenic amastigote extract; 10 µM; reference: vehicle).

Some of these lines once more:
`CC(=O)N[C@H](C(=O)N[C@@H](CCCNC(=N)N)C(=O)N[C@@H](CCCCN)C(=O)N[C@@H](CCCNC(=N)N)C(=O)N[C@H](C(=O)N[C@@H](CC(C)C)C(=O)N[C@@H](CCCNC(=N)N)C(=O)N[C@]1(C)CCCC=CCCC[C@@](C)(C(=O)N[C@@H](CCC(=O)O)C(=O)N[C@@H](CCCNC(=N)N)C(=O)N[C@@H](CCC(=O)O)C(=O)N[C@@H](CC(C)C)C(=O)N[C@H](C(=O)N[C@@H](CCC(=O)O)C(N)=O)C(C)C)NC(=O)[C@H](CC(C)C)NC(=O)[C@H](CC(C)C)NC1=O)[C@@H](C)O)C(C)C` gave an IC50 of > 100 µM (A-431; cell viability; 18 h, serum-free).
